Earlier results as cited in several papers.
± marks the error that the study gave.

O=C(c1cc(=O)[nH]c2ccccc12)N1CCN(c2ccc(Cl)c(Cl)c2)CC1CN1CCOCC1 (centres unmarked)  IC50 (human protease panel; enzyme activity, inhibitor; off-target): > 100000 nM
Nc1nc2nc[nH]c2c(=S)[nH]1  IC50 (Replicase polyprotein 1ab, papain-like protease (rep, Severe acute respiratory syndrome coronavirus 2, UniProt P0DTD1); enzyme activity; DTT in buffer): > 60000 nM
C[C@H](NC(=O)[C@@H](c1cccnc1)N(C(=O)c1ccco1)c1ccc(-c2ccccc2)cc1)c1ccccc1  IC50 (SARS-CoV-2 3CL protease; enzyme activity, inhibitor): 200 nM
CCC(CC)COC(=O)[C@H](C)N[P@](=O)(OC[C@H]1O[C@@](C#N)(c2ccc3c(N)ncnn23)[C@H](O)[C@@H]1O)Oc1ccccc1  EC50 (SARS-CoV-2; viral replication, RT-qPCR; Caco-2): 46 nM
CC(C)(C)[C@H](NC(=O)C(F)(F)F)C(=O)N1C[C@H]2[C@@H]([C@H]1C(=O)N[C@H](C#N)C[C@@H]1CCNC1=O)C2(C)C  EC90 (SARS-CoV-2; viral replication; Vero): 5600 ± 1100 nM
Cc1cnc(C(=O)N[C@H]2CCCCC/C=C\[C@@H]3C[C@@]3(C(=O)NS(=O)(=O)C3CC3)NC(=O)[C@@H]3C[C@@H](Oc4nc5ccccc5c5ccccc45)CN3C2=O)cn1  IC50 (SARS-CoV-2; viral replication; 293T/ACE2): 550 nM
COc1cc(C(=S)N2CCOCC2)ccc1O  inhibition (SARS-CoV-2; cytopathic effect; Caco-2; 10 µM): 0.9%
Nc1ccn(C[C@@H](CO)OCP(=O)(O)O)c(=O)n1  IC50 (Vaccinia virus; viral replication; HEL human embryonic lung fibroblasts, Lederle): 3.09 µg/mL

Repeated from above:
C[C@H](NC(=O)[C@@H](c1cccnc1)N(C(=O)c1ccco1)c1ccc(-c2ccccc2)cc1)c1ccccc1  IC50 (SARS-CoV-2 3CL protease; enzyme activity, inhibitor): 200 nM
